Literature values, collected from citations in different studies.
Protocols differ between the studies behind these lines. ± gives the spread as reported. ≈ marks a conversion by molar mass, not a printed value.
Sequence of UniProt Q9BXA7 (whole entry, looked up): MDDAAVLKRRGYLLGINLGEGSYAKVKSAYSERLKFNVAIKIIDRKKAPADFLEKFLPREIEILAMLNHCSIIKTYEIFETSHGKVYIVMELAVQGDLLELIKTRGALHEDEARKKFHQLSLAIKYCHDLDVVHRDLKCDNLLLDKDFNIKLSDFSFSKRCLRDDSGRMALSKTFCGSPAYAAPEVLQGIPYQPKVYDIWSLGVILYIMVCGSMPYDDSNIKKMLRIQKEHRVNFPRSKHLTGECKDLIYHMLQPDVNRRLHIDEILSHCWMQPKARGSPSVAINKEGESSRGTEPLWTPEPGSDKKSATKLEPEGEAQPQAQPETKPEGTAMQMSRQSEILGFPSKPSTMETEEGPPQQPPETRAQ

COc1cc2c(Oc3ccc4[nH]c(C)cc4c3F)ccnc2cc1OCC1(N)CC1  time of highest tissue concentration (mouse; oral, dose not given): 4 h
C=C[C@@H]1C[C@]1(NC(=O)[C@@H]1C[C@@H]2CN1C(=O)[C@H](C(C)(C)C)NC(=O)O[C@@H]1C[C@H]1CCCCCc1nc3ccc(OC)cc3nc1O2)C(=O)NS(=O)(=O)C1CC1  IC50 (OATP1B3; literature maximum): 2.91 µM
CCN(CC)CC(=O)Nc1c(C)cccc1C  activity outcome (HepG2; mitochondrial membrane potential; concentration not given, Tox21): inactive
CC1(C)S[C@@H]2[C@H](NC(=O)[C@H](N)c3ccccc3)C(=O)N2[C@H]1C(=O)O  MIC (Escherichia coli; clinical isolate RKI-No_524/16): > 16 µg/mL
O=C(CCCCCCC(=O)Nc1ccccc1)NO  activity outcome (HepG2; mitochondrial membrane potential; concentration not given, Tox21): inactive
CNCc1cn(S(=O)(=O)c2cccc(F)c2)c(-c2ccc(F)cc2F)c1OC  IC50 (MATE1; transporter uptake): 0.76 µM
CO[C@H]1C[C@@H]2CC[C@@H](C)[C@@](O)(O2)C(=O)C(=O)N2CCCC[C@H]2C(=O)O[C@H]([C@H](C)C[C@@H]2CC[C@@H](O)[C@H](OC)C2)CC(=O)[C@H](C)/C=C(\C)[C@@H](O)[C@@H](OC)C(=O)[C@H](C)C[C@H](C)/C=C/C=C/C=C/1C  intrinsic clearance (recombinant human CYP3A4; substrate): 9.33 µL/min/pmol
Cc1cc(Nc2ncc(Cl)c(Nc3ccccc3S(=O)(=O)C(C)C)n2)c(OC(C)C)cc1C1CCNCC1  activity outcome (HepG2; mitochondrial membrane potential; concentration not given, Tox21): inactive
Cc1cc(-c2nccc3c2ccn3CC(=O)Nc2ccc(-c3cnccn3)cn2)ccn1  Cmax (measured: total drug; dog; dose not given, 1-month toxicology study): 6.4 µM
CN(C)C(=O)c1cc2cnc(Nc3ccc(N4CCNCC4)cn3)nc2n1C1CCCC1  adverse event incidence (measured: constipation; advanced solid tumour or lymphoma patients; dose not given, continuous dosing; baseline: patients): 21.1%
COc1ccc(Cl)cc1C(=O)NCCc1ccc(S(=O)(=O)NC(=O)NC2CCCCC2)cc1  activity outcome (HepG2; mitochondrial membrane potential; concentration not given, Tox21): inactive
CNC(C)C1CCC(N)C(OC2C(N)CC(N)C(OC3OCC(C)(O)C(NC)C3O)C2O)O1 (stereo not shown)  MIC (Escherichia coli; clinical isolate RKI-No_317/16): 2 µg/mL (≈ 4.19 µM)
Nc1ccccc1NC(=O)c1ccc(CNc2nccc(-c3cccnc3)n2)cc1  activity outcome (HepG2; mitochondrial membrane potential; concentration not given, Tox21): inactive
CO[C@H]1/C=C/O[C@@]2(C)Oc3c(C)c(O)c4c(O)c(c(/C=N/N5CCN(C)CC5)c(O)c4c3C2=O)NC(=O)/C(C)=C\C=C\[C@H](C)[C@H](O)[C@@H](C)[C@@H](O)[C@@H](C)[C@H](OC(C)=O)[C@@H]1C  IC50 (OATP1B3; literature maximum): 190 µM
CO[C@H]1/C=C/O[C@@]2(C)Oc3c(C)c(O)c4c(O)c(c(/C=N/N5CCN(C)CC5)c(O)c4c3C2=O)NC(=O)/C(C)=C\C=C\[C@H](C)[C@H](O)[C@@H](C)[C@@H](O)[C@@H](C)[C@H](OC(C)=O)[C@@H]1C  Ki (P-glycoprotein (human); competitive inhibitor): 169 µM
CN(C)C/C=C/C(=O)Nc1cc2c(Nc3ccc(F)c(Cl)c3)ncnc2cc1O[C@H]1CCOC1  Papp A to B (Caco-2; 300 µM): 12.1 ± 3.43 ×10⁻⁶ cm/s
CO[C@@H](C)Cn1c(=O)n(C)c2cnc3ccc(-c4cncc(C(C)(C)O)c4)cc3c21  patients with related adverse event (measured: vomiting; cancer patients; dose not given, monotherapy): 31.3%
O=C(/C=C/c1cccc(S(=O)(=O)Nc2ccccc2)c1)NO  activity outcome (HepG2; mitochondrial membrane potential; concentration not given, Tox21): inactive
COc1cccc2c1C(=O)c1c(O)c3c(c(O)c1C2=O)C[C@@](O)(C(=O)CO)C[C@@H]3O[C@H]1C[C@H](N)[C@H](O)[C@H](C)O1  IC50 (COLO 205; cell viability): 0.85 µM
Nc1cc(C(F)(F)F)c(-c2nc(N3CCOCC3)nc(N3CCOCC3)n2)cn1  remaining activity (TSSK1B (Homo sapiens, UniProt Q9BXA7); enzyme activity; 10 µM; baseline: untreated): 90%
C=C[C@@H]1C[C@]1(NC(=O)[C@@H]1C[C@@H]2CN1C(=O)[C@H](C(C)(C)C)NC(=O)O[C@@H]1C[C@H]1CCCCCc1nc3ccc(OC)cc3nc1O2)C(=O)NS(=O)(=O)C1CC1  efflux ratio (rat P-glycoprotein; LLC-PK1 cells transfected with P-glycoprotein; 1 µM; baseline: B-A over A-B Papp): ~30
N#C[C@@]1(c2ccc3c(N)ncnn23)O[C@H](CO)[C@@H](O)[C@H]1O  plasma concentration (dog, plasma; intravenous, 2 mg/kg, 0.5 h, solution): 1900 ng/mL
CC(O)c1cc(C(=O)N[C@@H](C)Cn2ccc(-c3ccc(C#N)c(Cl)c3)n2)[nH]n1 (stereo partly shown)  IC50 (OATP1B3 (SLCO1B3) OATP1B3; literature geometric mean): 14 µM
COc1cc(NS(C)(=O)=O)ccc1Nc1c2ccccc2nc2ccccc12  mitochondrial toxicity (HepG2; mitochondrial membrane potential; concentration not given, Tox21): active
[N-]=[N+]=N[C@]1(CO)O[C@@H](n2ccc(N)nc2=O)[C@@H](F)[C@@H]1O  CC50 (Hut/CCR5; cytotoxicity): 0.34 µM

For quick reference, copied from above:
Cc1cc(Nc2ncc(Cl)c(Nc3ccccc3S(=O)(=O)C(C)C)n2)c(OC(C)C)cc1C1CCNCC1  activity outcome (HepG2; mitochondrial membrane potential; concentration not given, Tox21): inactive
CCN(CC)CC(=O)Nc1c(C)cccc1C  activity outcome (HepG2; mitochondrial membrane potential; concentration not given, Tox21): inactive
CN(C)C/C=C/C(=O)Nc1cc2c(Nc3ccc(F)c(Cl)c3)ncnc2cc1O[C@H]1CCOC1  Papp A to B (Caco-2; 300 µM): 12.1 ± 3.43 ×10⁻⁶ cm/s
